# Experimental data gathered from unrelated publications.
# Parts stem from different laboratories: compare values within a part only. Positions count from the first letter of the parent shown.
# Chain of UniProt Q6XUX3 (whole entry, looked up): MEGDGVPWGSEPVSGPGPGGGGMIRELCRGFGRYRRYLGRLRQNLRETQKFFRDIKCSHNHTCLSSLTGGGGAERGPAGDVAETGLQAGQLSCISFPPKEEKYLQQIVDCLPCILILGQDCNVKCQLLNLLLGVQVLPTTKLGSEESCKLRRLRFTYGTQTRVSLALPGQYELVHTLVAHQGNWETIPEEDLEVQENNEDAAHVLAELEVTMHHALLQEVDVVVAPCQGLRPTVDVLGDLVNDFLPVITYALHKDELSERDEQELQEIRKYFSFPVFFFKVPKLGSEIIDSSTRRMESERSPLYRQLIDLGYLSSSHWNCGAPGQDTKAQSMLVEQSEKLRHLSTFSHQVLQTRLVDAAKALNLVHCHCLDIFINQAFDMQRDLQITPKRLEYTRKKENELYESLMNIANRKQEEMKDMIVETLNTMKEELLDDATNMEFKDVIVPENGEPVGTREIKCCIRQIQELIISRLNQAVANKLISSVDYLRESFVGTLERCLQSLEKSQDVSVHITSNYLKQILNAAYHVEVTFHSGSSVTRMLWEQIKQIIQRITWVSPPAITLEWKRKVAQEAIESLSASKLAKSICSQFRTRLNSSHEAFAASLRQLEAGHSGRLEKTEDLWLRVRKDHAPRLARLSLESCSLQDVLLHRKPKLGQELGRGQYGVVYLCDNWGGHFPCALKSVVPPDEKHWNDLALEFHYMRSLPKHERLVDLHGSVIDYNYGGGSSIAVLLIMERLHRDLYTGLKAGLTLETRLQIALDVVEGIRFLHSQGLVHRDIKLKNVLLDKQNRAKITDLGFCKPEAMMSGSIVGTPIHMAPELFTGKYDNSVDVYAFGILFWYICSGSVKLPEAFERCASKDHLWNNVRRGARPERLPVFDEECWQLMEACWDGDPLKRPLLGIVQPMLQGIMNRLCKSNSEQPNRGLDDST
# Chain of UniProt P09619 (whole entry, looked up): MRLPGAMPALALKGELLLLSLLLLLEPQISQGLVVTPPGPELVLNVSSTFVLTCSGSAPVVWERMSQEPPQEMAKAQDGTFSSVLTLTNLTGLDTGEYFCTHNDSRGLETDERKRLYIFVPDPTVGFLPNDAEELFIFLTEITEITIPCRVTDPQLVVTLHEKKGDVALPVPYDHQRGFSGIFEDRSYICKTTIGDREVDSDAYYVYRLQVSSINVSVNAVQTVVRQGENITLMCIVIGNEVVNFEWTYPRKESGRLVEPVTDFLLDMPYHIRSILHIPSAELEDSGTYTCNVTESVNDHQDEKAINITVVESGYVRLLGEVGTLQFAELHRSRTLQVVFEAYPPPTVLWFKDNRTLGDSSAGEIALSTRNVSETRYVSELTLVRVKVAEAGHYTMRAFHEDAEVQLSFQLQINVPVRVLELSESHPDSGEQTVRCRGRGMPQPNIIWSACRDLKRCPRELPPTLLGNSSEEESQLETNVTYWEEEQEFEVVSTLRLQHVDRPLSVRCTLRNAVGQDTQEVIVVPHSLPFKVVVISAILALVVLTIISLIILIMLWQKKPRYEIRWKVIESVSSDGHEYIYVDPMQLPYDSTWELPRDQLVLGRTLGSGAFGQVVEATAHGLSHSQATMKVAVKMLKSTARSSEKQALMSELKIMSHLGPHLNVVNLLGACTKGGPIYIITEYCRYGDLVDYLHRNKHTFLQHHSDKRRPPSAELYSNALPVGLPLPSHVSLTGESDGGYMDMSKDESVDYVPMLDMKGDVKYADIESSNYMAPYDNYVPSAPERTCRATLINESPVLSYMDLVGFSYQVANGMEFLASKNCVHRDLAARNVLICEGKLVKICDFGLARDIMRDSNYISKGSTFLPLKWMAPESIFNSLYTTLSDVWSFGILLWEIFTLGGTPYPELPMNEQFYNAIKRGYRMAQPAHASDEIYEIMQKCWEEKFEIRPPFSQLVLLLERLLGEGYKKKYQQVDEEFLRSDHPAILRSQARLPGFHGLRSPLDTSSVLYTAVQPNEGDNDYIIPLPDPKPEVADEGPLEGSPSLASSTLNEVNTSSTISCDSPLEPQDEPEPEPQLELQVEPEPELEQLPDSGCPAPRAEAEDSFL
# Chain of UniProt P07948 (whole entry, looked up): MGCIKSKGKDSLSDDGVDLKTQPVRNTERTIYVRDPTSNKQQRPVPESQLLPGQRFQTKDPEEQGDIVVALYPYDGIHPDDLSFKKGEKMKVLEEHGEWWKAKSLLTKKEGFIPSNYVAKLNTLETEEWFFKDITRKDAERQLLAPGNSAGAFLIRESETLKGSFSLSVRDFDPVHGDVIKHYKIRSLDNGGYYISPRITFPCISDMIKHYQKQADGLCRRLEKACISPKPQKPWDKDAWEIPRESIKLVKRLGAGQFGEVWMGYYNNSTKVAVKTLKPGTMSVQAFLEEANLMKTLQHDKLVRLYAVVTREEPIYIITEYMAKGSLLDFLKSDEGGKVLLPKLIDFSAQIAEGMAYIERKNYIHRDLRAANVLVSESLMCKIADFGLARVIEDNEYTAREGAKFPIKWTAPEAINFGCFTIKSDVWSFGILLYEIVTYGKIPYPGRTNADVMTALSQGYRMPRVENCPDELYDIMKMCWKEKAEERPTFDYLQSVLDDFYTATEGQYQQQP
# Chain of UniProt Q59H18 (whole entry, looked up): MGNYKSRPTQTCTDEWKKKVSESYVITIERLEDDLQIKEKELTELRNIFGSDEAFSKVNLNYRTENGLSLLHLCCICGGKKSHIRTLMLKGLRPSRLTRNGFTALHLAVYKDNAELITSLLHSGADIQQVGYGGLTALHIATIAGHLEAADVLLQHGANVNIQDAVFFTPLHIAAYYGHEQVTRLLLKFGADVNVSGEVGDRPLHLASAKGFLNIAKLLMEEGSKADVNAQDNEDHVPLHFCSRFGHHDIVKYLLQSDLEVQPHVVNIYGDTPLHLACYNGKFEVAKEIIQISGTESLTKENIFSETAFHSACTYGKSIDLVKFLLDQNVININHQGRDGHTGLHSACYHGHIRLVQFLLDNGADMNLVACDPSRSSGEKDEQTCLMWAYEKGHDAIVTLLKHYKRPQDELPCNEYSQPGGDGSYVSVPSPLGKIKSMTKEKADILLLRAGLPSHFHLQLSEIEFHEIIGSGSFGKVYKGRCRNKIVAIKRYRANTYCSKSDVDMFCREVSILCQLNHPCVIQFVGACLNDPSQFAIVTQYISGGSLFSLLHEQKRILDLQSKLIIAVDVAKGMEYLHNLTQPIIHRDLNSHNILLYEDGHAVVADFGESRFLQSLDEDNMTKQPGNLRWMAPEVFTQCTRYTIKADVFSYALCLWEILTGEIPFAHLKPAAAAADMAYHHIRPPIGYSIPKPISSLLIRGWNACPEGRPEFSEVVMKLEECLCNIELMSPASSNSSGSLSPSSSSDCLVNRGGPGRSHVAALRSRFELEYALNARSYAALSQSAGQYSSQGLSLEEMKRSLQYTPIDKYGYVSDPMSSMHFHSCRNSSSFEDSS
# Chain of UniProt Q14164 (whole entry, looked up): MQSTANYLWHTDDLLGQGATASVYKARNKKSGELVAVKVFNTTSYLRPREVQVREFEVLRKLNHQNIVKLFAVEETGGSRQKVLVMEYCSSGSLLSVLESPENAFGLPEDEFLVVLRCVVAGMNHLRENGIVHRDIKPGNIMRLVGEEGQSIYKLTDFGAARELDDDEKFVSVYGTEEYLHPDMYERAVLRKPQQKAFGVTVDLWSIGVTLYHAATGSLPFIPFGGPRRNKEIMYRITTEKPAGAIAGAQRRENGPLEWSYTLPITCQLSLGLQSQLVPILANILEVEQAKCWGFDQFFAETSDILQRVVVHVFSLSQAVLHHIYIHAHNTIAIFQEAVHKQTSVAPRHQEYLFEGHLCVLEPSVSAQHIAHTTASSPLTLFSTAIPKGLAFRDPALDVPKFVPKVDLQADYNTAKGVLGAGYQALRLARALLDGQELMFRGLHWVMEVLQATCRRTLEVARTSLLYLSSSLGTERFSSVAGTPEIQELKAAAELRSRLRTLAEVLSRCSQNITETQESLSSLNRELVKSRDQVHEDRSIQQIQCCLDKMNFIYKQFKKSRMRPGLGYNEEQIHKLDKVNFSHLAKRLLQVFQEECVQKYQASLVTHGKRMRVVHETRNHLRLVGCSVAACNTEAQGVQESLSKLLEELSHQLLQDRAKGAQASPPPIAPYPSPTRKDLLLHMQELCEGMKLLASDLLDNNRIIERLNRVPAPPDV

# Series 1 — method: RNAcompete; form: RNA; medium: in vitro; tested at: 20 nM; notes: 7-mer, probes averaged, single round; relative to: mean of 7-mers; direction: higher = stronger binding
# Target: PABPC1L2, full length, GST fusion (mouse, UniProt A0ABA7IW68)
# Residues (chain): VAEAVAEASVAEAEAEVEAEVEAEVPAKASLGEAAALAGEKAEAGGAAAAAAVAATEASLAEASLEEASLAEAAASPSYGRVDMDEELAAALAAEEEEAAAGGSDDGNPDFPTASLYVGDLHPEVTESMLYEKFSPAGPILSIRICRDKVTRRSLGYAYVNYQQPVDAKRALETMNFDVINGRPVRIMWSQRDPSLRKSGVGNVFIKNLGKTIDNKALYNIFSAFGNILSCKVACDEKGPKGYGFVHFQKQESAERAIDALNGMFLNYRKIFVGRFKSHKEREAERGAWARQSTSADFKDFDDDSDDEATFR
Strand,7-mer Z-score
UCGUUAC,-0.358
AUAUCGU,-0.242
ACAAGAG,0.392
UAUAAAA,4.54
GUAACUC,-0.215
AGCCACG,-0.0264
GGGUAAG,0.193
CGGCCGA,-0.244

# Series 2 — method: competition with immobilised ligand; tested at: 1 µM
# Structure (SMILES): CN([C@@H]1CCc2c(CC(=O)O)c3ccccc3n2C1)S(=O)(=O)c1ccc(F)cc1
target,effect on,remaining binding
"Dual serine/threonine and tyrosine protein kinase (DSTYK, Homo sapiens, UniProt Q6XUX3)",cell-free assay,82%
"Leukocyte tyrosine kinase receptor (LTK, Homo sapiens, UniProt P29376)",cell-free assay,100%
"Cyclin-dependent kinase 15 (CDK15, Homo sapiens, UniProt Q96Q40)",cell-free assay,100%
"Epidermal growth factor receptor (EGFR, Homo sapiens, UniProt P00533, L858R/T790M)",cell-free assay,100%
"Tyrosine-protein kinase ABL2 (ABL2, Homo sapiens, UniProt P42684)",cell-free assay,100%
"Receptor-type tyrosine-protein kinase FLT3 (FLT3, Homo sapiens, UniProt P36888, D835Y)",cell-free assay,100%
"Platelet-derived growth factor receptor beta (PDGFRB, Homo sapiens, UniProt P09619)",cell-free assay,97%
"Serine/threonine-protein kinase WNK4 (WNK4, Homo sapiens, UniProt Q96J92)",cell-free assay,100%
"Tyrosine-protein kinase ABL1, phosphorylated (ABL1, Homo sapiens, UniProt P00519, Y253F)",cell-free assay,100%
"Receptor-type tyrosine-protein kinase FLT3 (FLT3, Homo sapiens, UniProt P36888, K663Q)",cell-free assay,100%
"Discoidin domain-containing receptor 2 (DDR2, Homo sapiens, UniProt Q16832)",cell-free assay,98%
"Serine/threonine-protein kinase TNNI3K (TNNI3K, Homo sapiens, UniProt Q59H18)",cell-free assay,100%
"Epidermal growth factor receptor (EGFR, Homo sapiens, UniProt P00533, del747-752/P753S)",cell-free assay,95%
"Vascular endothelial growth factor receptor 2 (KDR, Homo sapiens, UniProt P35968)",cell-free assay,82%
"Inhibitor of nuclear factor kappa-B kinase subunit epsilon (IKBKE, Homo sapiens, UniProt Q14164)",cell-free assay,84%
"Tyrosine-protein kinase Lyn (LYN, Homo sapiens, UniProt P07948)",cell-free assay,100%
"Receptor-type tyrosine-protein kinase FLT3 (FLT3, Homo sapiens, UniProt P36888, ITD)",cell-free assay,100%
"Tyrosine-protein kinase JAK3, JH1 (JAK3, Homo sapiens, UniProt P52333)",cell-free assay,98%
"Cyclin-dependent kinase 11A (CDK11A, Homo sapiens, UniProt Q9UQ88)",binding,100%
"STE20/SPS1-related proline-alanine-rich protein kinase (STK39, Homo sapiens, UniProt Q9UEW8)",cell-free assay,100%

# Series 3 — effect on: enzyme activity; action: inhibitor; tested at: 0.5 µM; relative to: control
# Target: G protein-coupled receptor kinase 4 (GRK4, Homo sapiens, UniProt P32298)
# Chain of UniProt P32298 (whole entry, looked up): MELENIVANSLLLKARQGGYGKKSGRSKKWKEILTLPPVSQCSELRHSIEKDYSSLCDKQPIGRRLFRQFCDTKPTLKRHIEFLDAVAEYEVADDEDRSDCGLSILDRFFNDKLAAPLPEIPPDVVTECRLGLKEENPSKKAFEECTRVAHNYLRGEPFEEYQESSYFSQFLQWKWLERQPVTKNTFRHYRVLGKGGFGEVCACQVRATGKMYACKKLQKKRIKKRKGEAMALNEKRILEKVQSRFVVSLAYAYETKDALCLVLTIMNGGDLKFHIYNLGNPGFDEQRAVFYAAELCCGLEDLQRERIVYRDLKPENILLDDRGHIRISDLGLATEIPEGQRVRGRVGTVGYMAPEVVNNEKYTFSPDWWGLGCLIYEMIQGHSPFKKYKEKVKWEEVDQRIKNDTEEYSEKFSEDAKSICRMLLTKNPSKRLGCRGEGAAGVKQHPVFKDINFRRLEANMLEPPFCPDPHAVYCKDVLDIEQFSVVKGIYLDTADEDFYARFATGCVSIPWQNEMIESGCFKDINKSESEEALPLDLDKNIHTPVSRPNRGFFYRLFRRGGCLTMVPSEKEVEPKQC
SMILES,remaining activity [%]
COc1ccc(C(=O)Nc2sc3c(c2C(N)=O)CCCC3)cc1OC,95.1
Oc1ccc(-c2nc(-c3ccncc3)c(-c3ccc(F)cc3)[nH]2)cc1,98.5
Cc1cccc(-c2[nH]c(C(C)(C)C)nc2-c2ccc3c(c2)OCO3)n1,101
Cc1ccc(Nc2nccc(N(C)c3ccc4c(C)n(C)nc4c3)n2)cc1S(N)(=O)=O,91.7
CN(C)c1ccc(C=C2C(=O)Nc3ccccc32)cc1,103
O=c1c2ccccc2[nH]c(=S)n1CCN1CCC(=C(c2ccc(F)cc2)c2ccc(F)cc2)CC1,107
CNC(=O)c1cc(Oc2ccc(NC(=O)Nc3ccc(Cl)c(C(F)(F)F)c3)cc2)ccn1,103
O=C(Nc1cccc(Nc2cc(Nc3cccc(C(F)(F)F)c3)ncn2)c1)C1CC1,104
OCC(O)CCON=C1C(c2c(O)[nH]c3ccccc23)=Nc2ccccc21 (stereo not drawn),74.7
CC(C)[C@H](CO)Nc1nc(Nc2cc(N)cc(Cl)c2)c2ncn(C(C)C)c2n1,103
COc1cc2ncnc(Nc3ccc(F)c(Cl)c3)c2cc1OCCCN1CCOCC1,91
O=S(=O)(c1cccc2cnccc12)N1CCCNCC1,104

# Series 4 — method: DHFR PCA, dose-response; medium: yeast; together with: (+)-ABA, dose series; direction: lower = more sensitive
# Target: ABI1, truncated, D143A, DHFR fusion (Arabidopsis thaliana, UniProt P49597)
# Notes: Hill fit, not affinity, not high confidence
# Starting sequence: PYL1, truncated, DHFR fusion (Arabidopsis thaliana, UniProt Q8VZS8); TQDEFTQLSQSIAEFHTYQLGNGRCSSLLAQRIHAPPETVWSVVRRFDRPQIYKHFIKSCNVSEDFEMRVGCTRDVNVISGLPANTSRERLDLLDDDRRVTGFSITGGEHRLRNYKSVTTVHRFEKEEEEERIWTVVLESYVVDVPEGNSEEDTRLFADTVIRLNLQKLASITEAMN
Variant,ABA EC50 [µM]
K54V,10.4
V137N,1.29
V161S,775
A158H,241
V40E,1.58
H16S,585
E89M,0.21
L112Q,535
